Measurements gathered from unrelated publications.
Numbered parts are unrelated; each lists some results of a single study. Several values in a cell are separate wells, animals, samples, runs or records.
Sequence of UniProt P53355 (whole entry, looked up): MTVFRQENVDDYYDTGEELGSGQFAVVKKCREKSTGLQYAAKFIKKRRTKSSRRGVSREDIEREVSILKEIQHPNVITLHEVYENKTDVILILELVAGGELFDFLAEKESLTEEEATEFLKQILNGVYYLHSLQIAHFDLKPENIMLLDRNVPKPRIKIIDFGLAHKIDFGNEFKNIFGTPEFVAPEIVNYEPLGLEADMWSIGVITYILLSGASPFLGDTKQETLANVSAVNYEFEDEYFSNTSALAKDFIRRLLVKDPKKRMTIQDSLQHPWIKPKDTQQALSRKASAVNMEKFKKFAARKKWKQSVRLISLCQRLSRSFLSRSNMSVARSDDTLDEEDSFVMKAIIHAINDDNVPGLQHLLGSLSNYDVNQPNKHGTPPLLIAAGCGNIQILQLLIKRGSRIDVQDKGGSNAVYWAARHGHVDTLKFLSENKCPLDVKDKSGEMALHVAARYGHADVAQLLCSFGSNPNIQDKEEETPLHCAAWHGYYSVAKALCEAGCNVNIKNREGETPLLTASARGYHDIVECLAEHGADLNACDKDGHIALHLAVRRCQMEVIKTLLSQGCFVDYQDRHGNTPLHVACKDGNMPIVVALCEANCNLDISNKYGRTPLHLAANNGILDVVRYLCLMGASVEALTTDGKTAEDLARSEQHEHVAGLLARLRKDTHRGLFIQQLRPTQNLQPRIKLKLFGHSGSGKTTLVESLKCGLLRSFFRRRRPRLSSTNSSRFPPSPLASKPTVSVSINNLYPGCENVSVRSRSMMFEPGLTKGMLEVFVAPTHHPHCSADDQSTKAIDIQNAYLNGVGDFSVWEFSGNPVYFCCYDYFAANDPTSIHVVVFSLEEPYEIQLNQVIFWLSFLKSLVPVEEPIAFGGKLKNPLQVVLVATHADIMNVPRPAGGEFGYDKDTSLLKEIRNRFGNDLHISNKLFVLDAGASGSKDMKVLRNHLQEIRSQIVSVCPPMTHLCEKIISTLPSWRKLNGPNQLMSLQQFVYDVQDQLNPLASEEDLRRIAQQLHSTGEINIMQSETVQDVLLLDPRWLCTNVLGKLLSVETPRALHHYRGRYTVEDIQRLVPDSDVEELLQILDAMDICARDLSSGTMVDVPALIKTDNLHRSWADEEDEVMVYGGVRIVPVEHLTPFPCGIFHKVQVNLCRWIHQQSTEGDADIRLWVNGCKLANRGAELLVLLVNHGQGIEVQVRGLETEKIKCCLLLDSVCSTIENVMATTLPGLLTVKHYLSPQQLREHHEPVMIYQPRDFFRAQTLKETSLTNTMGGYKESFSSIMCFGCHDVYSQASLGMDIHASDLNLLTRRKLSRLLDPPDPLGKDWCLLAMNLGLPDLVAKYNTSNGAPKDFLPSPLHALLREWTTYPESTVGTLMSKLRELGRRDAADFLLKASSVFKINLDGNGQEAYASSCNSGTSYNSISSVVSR
Sequence of UniProt Q99755 (whole entry, looked up): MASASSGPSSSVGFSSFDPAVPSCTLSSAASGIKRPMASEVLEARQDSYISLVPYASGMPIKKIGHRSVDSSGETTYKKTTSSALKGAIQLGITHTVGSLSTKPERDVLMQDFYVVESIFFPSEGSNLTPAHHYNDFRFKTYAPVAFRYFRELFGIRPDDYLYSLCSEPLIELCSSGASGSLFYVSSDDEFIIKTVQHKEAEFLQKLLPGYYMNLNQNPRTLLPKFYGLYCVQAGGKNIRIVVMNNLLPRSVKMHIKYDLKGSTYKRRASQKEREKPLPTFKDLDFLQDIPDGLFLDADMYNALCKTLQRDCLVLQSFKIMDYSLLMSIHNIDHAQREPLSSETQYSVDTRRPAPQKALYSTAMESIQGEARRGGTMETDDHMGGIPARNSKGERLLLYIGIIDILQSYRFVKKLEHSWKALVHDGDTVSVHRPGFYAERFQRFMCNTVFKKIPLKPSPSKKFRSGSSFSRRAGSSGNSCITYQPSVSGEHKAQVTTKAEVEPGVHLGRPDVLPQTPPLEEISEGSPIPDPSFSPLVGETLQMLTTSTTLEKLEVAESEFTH
Sequence of UniProt Q99640 (whole entry, looked up): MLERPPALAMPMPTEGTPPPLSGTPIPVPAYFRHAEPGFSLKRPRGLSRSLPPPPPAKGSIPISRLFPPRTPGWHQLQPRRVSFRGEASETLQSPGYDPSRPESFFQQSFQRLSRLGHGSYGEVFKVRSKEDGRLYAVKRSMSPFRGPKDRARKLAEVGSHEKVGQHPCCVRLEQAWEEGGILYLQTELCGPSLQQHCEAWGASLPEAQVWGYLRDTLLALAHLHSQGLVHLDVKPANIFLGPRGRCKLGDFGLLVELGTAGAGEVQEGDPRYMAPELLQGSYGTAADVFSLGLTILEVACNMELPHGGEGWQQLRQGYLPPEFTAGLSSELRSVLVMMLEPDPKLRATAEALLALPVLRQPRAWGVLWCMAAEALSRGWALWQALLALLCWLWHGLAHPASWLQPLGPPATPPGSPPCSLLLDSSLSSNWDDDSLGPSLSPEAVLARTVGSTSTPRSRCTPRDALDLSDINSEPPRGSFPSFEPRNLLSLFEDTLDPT
Sequence of UniProt P51955 (whole entry, looked up): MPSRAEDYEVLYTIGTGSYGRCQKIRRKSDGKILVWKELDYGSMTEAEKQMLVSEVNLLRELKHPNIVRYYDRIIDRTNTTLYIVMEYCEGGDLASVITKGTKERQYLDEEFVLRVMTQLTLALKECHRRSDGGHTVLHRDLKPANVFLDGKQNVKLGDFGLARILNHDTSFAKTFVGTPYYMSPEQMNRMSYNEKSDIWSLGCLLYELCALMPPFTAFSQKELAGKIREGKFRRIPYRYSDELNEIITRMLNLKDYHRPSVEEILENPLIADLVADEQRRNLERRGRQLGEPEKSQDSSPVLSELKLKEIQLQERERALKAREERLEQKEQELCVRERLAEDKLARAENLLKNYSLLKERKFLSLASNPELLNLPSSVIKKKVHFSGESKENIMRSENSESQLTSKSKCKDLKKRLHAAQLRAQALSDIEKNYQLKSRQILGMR
Sequence of UniProt P42336 (whole entry, unmodified, looked up): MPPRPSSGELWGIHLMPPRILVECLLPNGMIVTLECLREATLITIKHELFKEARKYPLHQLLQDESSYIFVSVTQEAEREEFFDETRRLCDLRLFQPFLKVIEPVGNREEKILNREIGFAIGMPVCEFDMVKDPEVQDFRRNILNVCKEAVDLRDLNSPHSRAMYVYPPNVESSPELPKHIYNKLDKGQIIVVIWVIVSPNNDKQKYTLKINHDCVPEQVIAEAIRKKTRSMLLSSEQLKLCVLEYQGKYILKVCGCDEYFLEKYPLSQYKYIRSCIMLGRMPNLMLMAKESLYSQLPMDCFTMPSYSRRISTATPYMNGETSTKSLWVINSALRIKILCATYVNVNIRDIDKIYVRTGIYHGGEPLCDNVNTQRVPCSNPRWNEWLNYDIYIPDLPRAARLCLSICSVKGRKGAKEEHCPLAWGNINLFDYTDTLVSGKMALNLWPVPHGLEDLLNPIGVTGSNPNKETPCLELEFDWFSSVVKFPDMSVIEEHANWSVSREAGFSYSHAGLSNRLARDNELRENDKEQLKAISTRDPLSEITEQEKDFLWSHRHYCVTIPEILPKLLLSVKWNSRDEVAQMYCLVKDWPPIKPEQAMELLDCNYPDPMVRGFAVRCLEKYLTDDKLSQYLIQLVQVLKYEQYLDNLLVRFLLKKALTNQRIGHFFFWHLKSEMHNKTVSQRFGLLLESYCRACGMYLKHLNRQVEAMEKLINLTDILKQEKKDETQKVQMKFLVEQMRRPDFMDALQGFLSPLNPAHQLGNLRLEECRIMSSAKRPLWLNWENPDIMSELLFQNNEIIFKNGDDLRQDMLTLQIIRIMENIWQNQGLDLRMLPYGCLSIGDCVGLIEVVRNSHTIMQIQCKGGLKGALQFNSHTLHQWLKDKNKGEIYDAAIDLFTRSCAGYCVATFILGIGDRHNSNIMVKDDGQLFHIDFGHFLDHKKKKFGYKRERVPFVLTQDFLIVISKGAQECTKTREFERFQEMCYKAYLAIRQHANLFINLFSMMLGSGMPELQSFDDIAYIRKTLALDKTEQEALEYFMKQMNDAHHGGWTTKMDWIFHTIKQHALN
Sequence of UniProt P07948 (whole entry, looked up): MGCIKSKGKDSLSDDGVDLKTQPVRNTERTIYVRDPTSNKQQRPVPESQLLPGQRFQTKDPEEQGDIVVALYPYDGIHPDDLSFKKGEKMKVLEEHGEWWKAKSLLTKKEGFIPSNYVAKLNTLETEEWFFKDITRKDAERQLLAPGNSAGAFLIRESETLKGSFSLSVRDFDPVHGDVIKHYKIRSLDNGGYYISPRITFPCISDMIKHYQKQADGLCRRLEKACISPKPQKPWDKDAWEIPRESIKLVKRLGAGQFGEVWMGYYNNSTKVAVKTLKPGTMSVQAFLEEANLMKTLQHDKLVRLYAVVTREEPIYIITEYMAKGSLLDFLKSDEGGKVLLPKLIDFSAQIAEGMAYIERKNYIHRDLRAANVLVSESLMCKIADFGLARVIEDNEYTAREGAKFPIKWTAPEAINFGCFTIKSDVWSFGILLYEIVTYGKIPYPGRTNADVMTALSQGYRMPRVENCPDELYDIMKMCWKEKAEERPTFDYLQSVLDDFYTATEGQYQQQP
Sequence of UniProt P36897 (whole entry, looked up): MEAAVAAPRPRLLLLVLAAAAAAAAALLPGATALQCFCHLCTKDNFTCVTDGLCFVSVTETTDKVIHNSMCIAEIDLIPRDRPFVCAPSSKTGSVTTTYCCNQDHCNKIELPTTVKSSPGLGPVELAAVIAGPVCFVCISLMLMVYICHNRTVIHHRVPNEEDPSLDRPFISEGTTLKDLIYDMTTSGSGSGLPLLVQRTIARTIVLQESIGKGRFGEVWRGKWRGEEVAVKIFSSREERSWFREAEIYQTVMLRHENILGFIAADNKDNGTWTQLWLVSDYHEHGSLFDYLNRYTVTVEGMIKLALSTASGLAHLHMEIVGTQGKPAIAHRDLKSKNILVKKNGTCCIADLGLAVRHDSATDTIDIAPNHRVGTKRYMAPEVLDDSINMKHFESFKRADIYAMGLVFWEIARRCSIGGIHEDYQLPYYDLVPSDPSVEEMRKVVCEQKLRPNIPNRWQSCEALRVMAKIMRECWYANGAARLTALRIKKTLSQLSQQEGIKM

Set 1
Compound: Ic1ccc(Nc2nc(NCCN3CCOCC3)nc(N3CCOCC3)n2)cc1
Relative to: vehicle
tested on | test | system | conditions | enzyme activity
wild-type human fibroblasts | GCase activity, 4-MUG hydrolysis lysate |  | 1 µM, 48 h | 115% and 110% and 105% and 113%
glucocerebrosidase L444P (human) | 4-MUG hydrolysis in lysate | Gaucher fibroblasts L444P/L444P | 0.1 µM, 72 h | 105%
L444P/L444P Gaucher fibroblasts | 4-MUG hydrolysis in lysate |  | 1 µM, 72 h, without ISRIB | 120% and 121% and 130% and 109% and 128% and 124% and 132%
wild-type human fibroblasts | GCase activity, 4-MUG hydrolysis lysate |  | 1 µM, 72 h | 139% and 116% and 141%
L444P/L444P Gaucher fibroblasts | 4-MUG hydrolysis in lysate |  | 10 µM, 72 h | 166% and 124% and 142% and 174% and 127%
L444P/L444P Gaucher fibroblasts | 4-MUG hydrolysis in lysate |  | 0.5 µM, 72 h | 113% and 114% and 120% and 111% and 118%
wild-type human fibroblasts | GCase activity, 4-MUG hydrolysis lysate |  | 0.5 µM, 72 h | 115% and 120% and 109% and 122% and 139%
glucocerebrosidase L444P (human) | 4-MUG hydrolysis in lysate | Gaucher fibroblasts L444P/L444P | 10 µM, 72 h | 140%
L444P/L444P Gaucher fibroblasts | 4-MUG hydrolysis in lysate |  | 0.1 µM, 72 h | 105% and 96.5% and 101% and 115% and 111% and 104% and 94.8%

Set 2
Structure (SMILES): CCc1[nH]c(-c2ccc(OC)cc2)nc1-c1ccncc1
Observed: enzyme activity
Action: inhibitor
Concentration: 0.5 µM
Relative to: control
target | remaining activity [%]
STK11 (Homo sapiens, UniProt Q15831) | 89.5
IKBKE (Homo sapiens, UniProt Q14164) | 99.8
CAMKK2 (Homo sapiens, UniProt Q96RR4) | 109
DAPK1 (Homo sapiens, UniProt P53355) | 97.4
TGFBR1 (Homo sapiens, UniProt P36897) | 98.2
CHEK2 (Homo sapiens, UniProt O96017) | 102
MAP3K3 (Homo sapiens, UniProt Q99759) | 99
PRKCA (Homo sapiens, UniProt P17252) | 107
Cyclin-dependent kinase 4, with cyclin D1 (CDK4, Homo sapiens, UniProt P11802) | 107
Tyrosine-protein kinase Lyn, isoform B (LYN, Homo sapiens, UniProt P07948) | 101
CAMK2D (Homo sapiens, UniProt Q13557) | 96.4
STK10 (Homo sapiens, UniProt O94804) | 96.8
cGMP-dependent protein kinase 1, isoform beta (PRKG1, Homo sapiens, UniProt Q13976) | 91.2
PRKACA (Homo sapiens, UniProt P17612) | 100
OXSR1 (Homo sapiens, UniProt O95747) | 97.7
DAPK2 (Homo sapiens, UniProt Q9UIK4) | 104
TGFBR2 (Homo sapiens, UniProt P37173) | 140
STK39 (Homo sapiens, UniProt Q9UEW8) | 94.2
NEK2 (Homo sapiens, UniProt P51955) | 100
Cyclin-dependent kinase 5, with p25 (CDK5, Homo sapiens, UniProt Q00535) | 95.9
Protein kinase C beta type, isoform beta-I (PRKCB, Homo sapiens, UniProt P05771) | 104
GRK3 (Homo sapiens, UniProt P35626) | 98.4
MAPK9 (Homo sapiens, UniProt P45984) | 101
IKBKB (Homo sapiens, UniProt O14920) | 106

Set 3
Structure (SMILES): CNC(=O)Nc1ccc2c(c1)[C@@]1(CC2)OC(=O)N(CC(=O)N(Cc2ccc(F)cc2)[C@@H](C)C(F)(F)F)C1=O
Method: competition with immobilised ligand
Concentration: 1 µM
target | test | remaining binding [%]
DAPK1 (Homo sapiens, UniProt P53355) | cell-free assay | 100
ANKK1 (Homo sapiens, UniProt Q8NFD2) | cell-free assay | 61
PIP5K1A (Homo sapiens, UniProt Q99755) | cell-free assay | 89
BUB1 (Homo sapiens, UniProt O43683) | cell-free assay | 77
EPHB3 (Homo sapiens, UniProt P54753) | cell-free assay | 86
MAPK6 (Homo sapiens, UniProt Q16659) | cell-free assay | 97
MAPK3 (Homo sapiens, UniProt P27361) | cell-free assay | 100
PIK3CB (Homo sapiens, UniProt P42338) | cell-free assay | 97
CDK11B (Homo sapiens, UniProt P21127) | cell-free assay | 97
MAPK4 (Homo sapiens, UniProt P31152) | cell-free assay | 98
TEC (Homo sapiens, UniProt P42680) | binding | 100
TEK (Homo sapiens, UniProt Q02763) | cell-free assay | 100
CSNK1G2 (Homo sapiens, UniProt P78368) | cell-free assay | 100
FLT4 (Homo sapiens, UniProt P35916) | cell-free assay | 100
PKMYT1 (Homo sapiens, UniProt Q99640) | cell-free assay | 92
STK24 (Homo sapiens, UniProt Q9Y6E0) | cell-free assay | 100
PRKACA (Homo sapiens, UniProt P17612) | cell-free assay | 99
PIK3CA (Homo sapiens, UniProt P42336, H1047L) | cell-free assay | 96
CDC42BPA (Homo sapiens, UniProt Q5VT25) | cell-free assay | 98
PTK2B (Homo sapiens, UniProt Q14289) | cell-free assay | 83
LATS1 (Homo sapiens, UniProt O95835) | cell-free assay | 59
MAP3K7 (Homo sapiens, UniProt O43318) | cell-free assay | 81

Set 4
Cell line: HaCaT
Concentration: 100 µM
Time: 36 h
Structure (SMILES) | viability
C#C[C@]1(O)CC[C@H]2[C@@H]3CCC4=C(CCC(=O)C4)[C@H]3CC[C@@]21C | 95.3%
CC(C(=O)O)c1ccc(-c2ccccc2)c(F)c1 (stereo not drawn) | 89.8%
O=C(O)c1ccc[n+]([O-])c1 | 85.4%
O=c1oc2cc(O)ccc2s1 | 96.8%
COc1ccc(-c2nc3ccc(C4=NNC(=O)CC4C)cc3[nH]2)cc1 (stereo not drawn) | 9.11%
CS(=O)(=O)c1ccc(C(=O)Nc2ccc(Cl)c(-c3ccccn3)c2)c(Cl)c1 | 46.5%
CCC(=O)O[C@]1(C(=O)SCF)[C@H](C)C[C@H]2[C@@H]3C[C@H](F)C4=CC(=O)C=C[C@]4(C)[C@@]3(F)[C@@H](O)C[C@@]21C | 64.9%
NNC(=O)c1ccncc1 | 88.1%
Clc1ccc2nsnc2c1NC1=NCCN1 | 87.5%
O=c1cc[nH]c(=O)[nH]1 | 92.2%
COc1c2occc2c(OC)c2c(=O)cc(C)oc12 | 45.7%

Excerpt of the above (set 2):
target | remaining activity [%]
DAPK1 (Homo sapiens, UniProt P53355) | 97.4
TGFBR1 (Homo sapiens, UniProt P36897) | 98.2
CHEK2 (Homo sapiens, UniProt O96017) | 102
MAP3K3 (Homo sapiens, UniProt Q99759) | 99
PRKCA (Homo sapiens, UniProt P17252) | 107
Cyclin-dependent kinase 4, with cyclin D1 (CDK4, Homo sapiens, UniProt P11802) | 107
Tyrosine-protein kinase Lyn, isoform B (LYN, Homo sapiens, UniProt P07948) | 101
